Published values gathered from unrelated publications.
Each line is one published result; not all experiments were run side by side. Several values in a cell are separate wells, animals, samples, runs or records. ± gives the spread as reported.

Structure (SMILES)	assay	system	conditions	quantity	value
COc1ccc2c3c([nH]c2c1)[C@H](CC(C)C)N1C(=O)[C@H](CCC(=O)NC(C)C)NC(=O)[C@@H]1C3	UPLC-QTOFMS	wild-type mouse, serum	oral, 50 mg/kg	AUC	increased
COc1cc2c3c(n(CCCNCCO)c(=O)c2cc1OC)-c1nc2c(cc1C3=O)OCO2	–	male CD1 mouse, plasma	intravenous, 1 mg/kg	AUC extrapolated	2.61%
CC(C)Oc1c(NC(=O)c2ccc(NC(=O)[C@H](CC(N)=O)NC(=O)c3ccc(NC(=O)c4ccc(C#N)cc4)cc3)cc2)ccc(C(=O)Nc2ccc(C(=O)O)cc2)c1O	–	CD-1 mouse male, plasma	intravenous, 5 mg/kg	AUC	2090 ± 573 ng·h/mL
COc1cc(OC)c2nccc(N3CCc4c(cc(Cn5ccnc5)cc4-c4cn(C)nc4C(F)(F)F)C3=O)c2c1	–	CD-1 mouse, male, plasma	intravenous, 3 mg/kg	AUC extrapolated	0.3%
COc1cc2c3c(n(CCCNC(C)C)c(=O)c2cc1OC)-c1nc2c(cc1C3=O)OCO2	–	male CD1 mouse, plasma	oral, 10 mg/kg	AUC extrapolated	8.61%
CS(=O)(=O)CCNCc1ccc(-c2ccc3ncnc(Nc4ccc(OCc5cccc(F)c5)c(Cl)c4)c3c2)o1	–	female FVB mouse, plasma	intraperitoneal, 60 mg/kg every 3 h ×5, extrapolated to steady state	AUC	39900 ng·h/mL
CO[C@H]1/C=C/O[C@@]2(C)Oc3c(C)c(O)c4c(c3C2=O)C2=NC3(CCN(CC(C)C)CC3)NC2=C(NC(=O)/C(C)=C\C=C\[C@H](C)[C@H](O)[C@@H](C)[C@@H](O)[C@@H](C)[C@H](OC(C)=O)[C@@H]1C)C4=O	–	CD-1 mouse, plasma	oral, dose not given, efficacy dose	AUC	21500 ng·h/mL
COc1ccc2c3c([nH]c2c1)[C@H](CC(C)C)N1C(=O)[C@H](CC(=O)NC(C)C)NC(=O)[C@@H]1C3	–	wild-type mouse, male, serum	oral, 100 mg/kg	AUC	142 µM·h and 159 µM·h and 127 µM·h
COc1ccc2nccc(N3CCc4c(cc(Cn5ccnc5)cc4-c4cn(C)nc4C(F)(F)F)C3=O)c2c1	–	CD-1 mouse, male, plasma	intravenous, 3 mg/kg	AUC extrapolated	0.3%
CCCCCOC(=O)Nc1nc(=O)n([C@@H]2O[C@H](C)[C@@H](O)[C@H]2O)cc1F	–	FVB mouse, abcb1 knock-out, plasma	oral, 300 mg/kg, 0 to 120 min	AUC	37600 ng·h/mL
CNC(=O)c1cc(OC)cc2c(N3CCc4c(cc(Cn5ccnc5)cc4-c4cn(C)nc4C(F)(F)F)C3=O)ccnc12	–	CD-1 mouse, male, plasma	intravenous, 3 mg/kg	AUC extrapolated	0.1%
CN(C)C(=O)c1cc2cnc(Nc3ccc(-c4ccc5c(=O)cc(N6CCOCC6)oc5c4)cc3)nc2n1C1CCCC1.Cl	–	BALB/c mouse, plasma	oral, 20 mg/kg	AUC extrapolated	4.4 ± 2.2%
CCc1cc(OC)c2nccc(N3CCc4c(cc(Cn5ccnc5)cc4-c4cn(C)nc4C(F)(F)F)C3=O)c2c1	–	CD-1 mouse, male, plasma	intravenous, 3 mg/kg	AUC extrapolated	0.1%
CCNCCCn1c2c(c3cc(OC)c(OC)cc3c1=O)C(=O)c1cc3c(nc1-2)OCO3	–	male CD1 mouse, plasma	intravenous, 1 mg/kg	AUC extrapolated	8.98%

Repeated from above:
Structure (SMILES)	assay	system	conditions	quantity	value
COc1cc2c3c(n(CCCNCCO)c(=O)c2cc1OC)-c1nc2c(cc1C3=O)OCO2	–	male CD1 mouse, plasma	intravenous, 1 mg/kg	AUC extrapolated	2.61%
CC(C)Oc1c(NC(=O)c2ccc(NC(=O)[C@H](CC(N)=O)NC(=O)c3ccc(NC(=O)c4ccc(C#N)cc4)cc3)cc2)ccc(C(=O)Nc2ccc(C(=O)O)cc2)c1O	–	CD-1 mouse male, plasma	intravenous, 5 mg/kg	AUC	2090 ± 573 ng·h/mL
